# Assay results gathered from unrelated publications.
# Lines come from different studies, so protocols differ. “And” joins repeats or separate records; there may be more than shown.
# Target: Serine/threonine-protein kinase N1 (PKN1, Homo sapiens, UniProt Q16512)
Structure (SMILES),assay,test system,setting,how to read,measurement,value
CN1CCN(Cc2ccc(-c3ccc(CO[C@H]4CCC[C@@H]4NC(=O)c4cc(-c5cnn(C)c5)cnc4N)cc3)cc2)CC1,"enzyme activity, inhibitor",,0.1 µM,,inhibition,9%
CC(C)=CC1OC(C)(C)C2C=C3C(=O)C(Cl)=CC(O)C3C3C(O)C4OC4C(=O)C132 (stereo not drawn),"cell-free assay, competition with immobilised ligand",,10 µM,,remaining binding,96%
CS(=O)(=O)Nc1cccc(-c2csc3cnc(Nc4ccc(N5CCN(CCCCCOc6cccc7c6C(=O)N(C6CCC(=O)NC6=O)C7=O)CC5)cc4)nc23)c1 (stereo not drawn),"probe labelling, inhibitor, KiNativ chemoproteomics",MOLT-4,1 µM,,inhibition,-21.2%
CN1CC[C@@H](COc2cnc(C#N)cc2-c2ccn3nc(NC(=O)C4CC4)cc3c2)C1,"enzyme activity, inhibitor",,1 µM,,inhibition,3%
Cc1c[nH]c2nccc(-c3ccc(C(=O)N[C@@H]4c5c(F)cc(C(F)F)cc5C[C@@H]4O)cn3)c12,"binding, competition with immobilised ligand",,3 µM,,remaining binding,59%
COc1c(Cl)cccc1Nc1c(-c2ccncc2C#C[C@@]2(C)CCCN2C(=O)/C=C/CN(C)C)[nH]c2c1C(=O)NCC2,"binding, competition with immobilised ligand",,3 µM,,remaining binding,100%
NC(=O)[C@@H](O)C[C@H]1CCc2sc3ncnc(O[C@H]4CC[C@H](N5CCOCC5)CC4)c3c21,"enzyme activity, inhibitor",,10 µM,,inhibition,9%
COc1cc(Nc2nc(C)cc(-c3cnn4nc(OC)ccc34)n2)cc(C(F)(F)F)c1,inhibitor,,1 µM,baseline: control,remaining activity,94%
Nc1ncc(-c2cc(-c3cnn(CC(F)(F)F)c3)ncc2F)nc1C(=O)NC1CNCC(F)C1 (stereo not drawn),enzyme activity,,1 µM,baseline: DMSO control,remaining activity,94.5%
C=CC(=O)Nc1cccc(-c2cnc3[nH]cc(C(=O)NC(C)(C)C)c3n2)c1,kinase activity,,0.1 µM,,inhibition,-8% and -2%
CCn1cc(C(=O)O)c(=O)c2c(N)c(F)c(NC3CCCCC3)cc21,kinase activity,,"0.1 µM, with: ATP at Km",,inhibition,-8.4%
Cc1cccc(O[C@H]2CCC[C@@H](C(C)CNCc3ccncc3)C2)c1 (relative stereo),"enzyme activity, inhibitor",,10 µM,,inhibition,-7%
Cc1ccc(-c2c(/C=C(\C#N)C(=O)NC(C)C)n(CCCO)c3ncnc(N)c23)cc1,"cell-free assay, competition with immobilised ligand",,1 µM,,remaining binding,100%
CCN1CCN(Cc2ccc(C(=O)Nc3ccc(C)c(NCc4cnc5[nH]ccc5c4OC)c3)cc2C(F)(F)F)CC1,"binding, competition with immobilised ligand",,1 µM,,remaining binding,100%
C=CC(=O)N1CCCC(n2c(=O)c3ncccc3n(Cc3ccc(Oc4ccccc4)cc3)c2=O)C1 (stereo not drawn),"cell-free assay, competition with immobilised ligand",,1 µM,,remaining binding,86%

# Repeated from above:
Structure (SMILES),assay,test system,setting,how to read,measurement,value
C=CC(=O)Nc1cccc(-c2cnc3[nH]cc(C(=O)NC(C)(C)C)c3n2)c1,kinase activity,,0.1 µM,,inhibition,-8% and -2%
Cc1cccc(O[C@H]2CCC[C@@H](C(C)CNCc3ccncc3)C2)c1 (relative stereo),"enzyme activity, inhibitor",,10 µM,,inhibition,-7%
